Experimental data from different studies.
Parts stem from different laboratories: compare values within a part only.

Sample 1
Target: Interferon regulatory factor 5, full length, phosphomimetic (IRF5, Homo sapiens, UniProt Q13568-2, residues 1-514, K96S/S451D/S453D/S456D/S462D)
Technique: protein-binding microarray
Form: double-stranded DNA, one strand shown
Medium: in vitro
Tested at: 250 nM
Notes: 60-bp whole probe
Added: salmon DNA 0.4 mg/ml
Relative to: random background probes
Direction: higher = stronger binding
Shared flanks, not repeated: GCCTAGCAC … GTCTTGATTCGCTTGACGCTGCTG
The log fluorescence of `TGAGATTTCGGGTTTCGATTAGTGCTA` is reported as 8.08 z-score.
`TTAAGTATCGGGACTGGGTTAGTGCTA` gave a log fluorescence of 3.09 z-score.
For `GGTCTTTTCGCTTTCTTTACGTGCTAG`, the log fluorescence was 3.59 z-score.
With `CTAGATTTCAGTCTCGATTAGTGCTAG` the log fluorescence was 2.41 z-score.
`TTAGGTCTCGGACGGGGTTAGTGCTAG` has a log fluorescence of -0.224 z-score.
The log fluorescence of `TTAGGTCTCCTTATGCTTTAGTGCTAG` is reported as -0.321 z-score.
`GACGGACTGGAAACTGGGGACGTGCTA` has a log fluorescence of -0.376 z-score.
For `GACGATATCGGGTACCGAGACGTGCTA`, the log fluorescence was 1.52 z-score.
For `GACGGTATCGACTAGCGGGACGTGCTA`, the log fluorescence was 2.72 z-score.
With `TTTACTTTCTATGTCTGTTTGTGCTAG` the log fluorescence was 6.72 z-score.
The log fluorescence of `TTAGGTCTCGGGTTTCGGTTAGTGCTA` is reported as 7.11 z-score.
`CCCAATTCTCTTTTCACTTTGTGCTAG` has a log fluorescence of 1.32 z-score.
The log fluorescence of `TTAGGTTTCTTTTATTCAAAGTGCTAG` is reported as 2.16 z-score.
`GACGGTCTCGGTCGCGGGACGTGCTAG` has a log fluorescence of -0.0224 z-score.
With `TTAGATTTCAGTCTCGATTTGTGCTAG` the log fluorescence was 2.94 z-score.
The log fluorescence of `TCATTTCTATGTCTGTTACTGTGCTAG` is reported as 1.95 z-score.
For `TTAGGTCTCCTTCTCCTTTCGTGCTAG`, the log fluorescence was 0.749 z-score.
The log fluorescence of `TTAGGTTTCGGTTCCGGTTTGTGCTAG` is reported as 10.8 z-score.

Sample 2
Target: RING finger protein unkempt homolog, zinc fingers 1-6, GST-SBP tag (UNK, Homo sapiens, UniProt Q9C0B0, residues 30-357)
UniProt Q9C0B0, sequence (30-357, looked up): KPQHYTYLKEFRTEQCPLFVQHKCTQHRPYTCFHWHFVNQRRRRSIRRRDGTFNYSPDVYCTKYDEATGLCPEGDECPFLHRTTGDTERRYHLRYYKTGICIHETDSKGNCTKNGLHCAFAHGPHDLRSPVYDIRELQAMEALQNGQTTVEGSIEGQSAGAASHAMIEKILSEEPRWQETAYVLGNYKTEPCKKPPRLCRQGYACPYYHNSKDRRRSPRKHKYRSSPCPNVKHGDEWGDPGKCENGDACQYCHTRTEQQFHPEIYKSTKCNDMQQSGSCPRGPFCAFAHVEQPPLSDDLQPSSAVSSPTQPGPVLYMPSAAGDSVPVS
Technique: RNA Bind-n-Seq
Form: RNA
Medium: in vitro
Tested at: not given
Notes: RNA with constant flanks, human and mouse sites, ends assumed
Relative to: input RNA pool
Direction: higher = stronger binding
Shared flanks, not repeated: GGGAGUUCUACAGUCCGACGAUC … CAACAGAGGAUUGAGCAUCA
The bound/input enrichment of `GAACAGUCCCAGGGCUCCACCACAAAUAGUGACUGGAUGAAAAACCUCAUCUCCCCUGACUUAGGAGUUGUAUUUCUCAAUGUACCUGAAAAUCUCAAAAAUCCAGAGCCAAACAUCAAG` is reported as 0.339 ratio.
`CGCGUCCUGCGCCGGACUCGGAUUGCCAAAAACCUGGAGUUAGAACAAGUGACUGUCCCAAUAGGUGUUUUACUGGUGAUCUUUGAGUCUCGCCCUGACUGUCUACCCCAGGUGGCAGCC` has a bound/input enrichment of 3.16 ratio.
`UAUAAGAUCUGGAUUGUGGAGCCAAACCAAGGGGUUUGAAAGUAUAGAGGUUUGUAAAGUUCCAGCCCCGCAGCUGCACAGCACACCACCACUGCUGCUGUGCUCAGGUGUUUAUUGCAG` has a bound/input enrichment of 0.315 ratio.
For `GGCCUACCUCUUGUUUCUGCCCGGCCCUCUGGCCAGAGCCCUGGCCUGCAAGAGGGACAGAGCCUGGGAGACGCGCACUCCCGUUGGGUUUGAGACAGACACUUUUUAUAUUUACCUCCU`, the bound/input enrichment was 0.202 ratio.
`CCACGCUGUGGUUUCAGCAAGCAGAUGGUGGAAAUUCUUCACAAACAUAAUAUUCAGUUUAGCAGUUUUGAUAUCUUCUCAGAUGAAGAGGUUCGACAGGGACUCAAAGCCUAUUCCAGU` has a bound/input enrichment of 0.834 ratio.
`GGAGAGUCUCAGCCAGUGAAAAUGUUUGAUCGCCAUUCUAGCCUUGCAGGGUGCCAGAUUAUCAAUUACCGUACAGAUGCAAAACAAAAGUGGUUACUUCUGACUGGUAUAUCUGCACAG` has a bound/input enrichment of 0.315 ratio.
`GGCACACGGCUUUCUUUCUCUGUGUGUUCGCCUCUUUCUUCUCUUUUAUUUGCCUUAUUCUAUAGGAUUUUUGUCCUCUAAGAUUCUACCUGGGAUUUUCCUUUGGAAAAGUUGCUGUGG` gave a bound/input enrichment of 0.512 ratio.
With `GGAGGAAUUGUCCUGGUCUUGGGUGUGCAGGCUGUAAUUUUCUUUCUUUAUAAAUUCUGCAAAUCUAAAGAACGAAAUUACCACACUCUGUAAACAGACCCAUUGAAUUAAUAAGGACUG` the bound/input enrichment was 0.281 ratio.

Sample 3
Target: Centromere-binding protein 1, full length, His-tagged (CBF1, Saccharomyces cerevisiae, UniProt P17106, residues 1-351)
UniProt P17106, sequence (whole entry, looked up): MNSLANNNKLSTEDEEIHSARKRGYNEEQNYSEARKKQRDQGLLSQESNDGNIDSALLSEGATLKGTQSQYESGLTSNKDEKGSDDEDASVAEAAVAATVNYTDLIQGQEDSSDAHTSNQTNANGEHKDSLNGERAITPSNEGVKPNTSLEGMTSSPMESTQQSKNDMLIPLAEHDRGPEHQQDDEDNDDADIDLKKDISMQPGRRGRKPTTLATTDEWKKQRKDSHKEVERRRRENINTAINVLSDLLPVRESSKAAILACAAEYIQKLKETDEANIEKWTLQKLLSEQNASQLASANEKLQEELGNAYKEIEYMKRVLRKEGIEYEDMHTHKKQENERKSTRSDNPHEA
Technique: competition protein-binding microarray
Form: double-stranded DNA, one strand shown
Medium: in vitro
Tested at: 2 µM
Notes: whole 60-bp probe, lowest competitor level
Added: Pho4 competitor, 0.05 µM
Direction: higher = stronger binding
Shared flanks, not repeated: … GTCTTGATTCGCTTGACGCTGCTG
`CAAGTTCCTGGCCATCACGTTGCCTTCTCCTTACGA` has a fluorescence intensity of 226 a.u.
The fluorescence intensity of `TAACAGTATATCCGACACGCACGGCAAGACCACTTA` is reported as 57.8 a.u.
`CCTTTGTCGGTGGTACTCGTGGTGACGGTCCAAGAA` has a fluorescence intensity of 66.6 a.u.
For `ATTTGTCAATGCCATCACGATGCAAGTCAGTGATGT`, the fluorescence intensity was 115 a.u.
With `CAGGCGTCCACCGCTCCCGTGTCGGTGTAACCAAGG` the fluorescence intensity was 64 a.u.
`TTGCGGACGGACCATCACGCAAGTTTTTTAACGCGA` has a fluorescence intensity of 74 a.u.
With `CTGCCAGTAAAGCAGAATGTGCGGGTCTTGTATCCA` the fluorescence intensity was 59.8 a.u.
For `GTCGTATTATCGAGTCACGTGCTTTATTCCATGGCG`, the fluorescence intensity was 14000 a.u.
`AGAGCAAATAGTTGAAAGGTGTGCCATAAGAAGGTG` gave a fluorescence intensity of 89.1 a.u.
`GCTCTTGCAGCAGTTTCCGTGGGTAGGACCAAGGTC` has a fluorescence intensity of 56.1 a.u.
The fluorescence intensity of `AAATTACTAAGTTGTCCAGTGGGTGACGCCGTATGA` is reported as 54.7 a.u.
For `CATCAGCCTTCCATGCCCGTGCAATTACGGCTCCTC`, the fluorescence intensity was 77 a.u.
For `AAATCATCTCTTTGTCACGTGACTCGAACCTAGCGG`, the fluorescence intensity was 25000 a.u.
With `GGTTTATTTGGATCGCACGTGGCAATAGTGATGAGA` the fluorescence intensity was 1420 a.u.
For `TTCAATGGGACCCATCACGGCCATGACGATATCCAG`, the fluorescence intensity was 66.5 a.u.

Sample 4
Target: Prothrombin, mature alpha-thrombin (F2, Homo sapiens, UniProt P00734)
Technique: aptamer microarray, sandwich
Form: DNA with 2'F-ANA
Medium: in vitro
Tested at: 200 nM
Notes: whole 15-mer aptamer, many near background
Added: Cy3 exosite-II aptamer, 400 nM
Direction: higher = stronger binding
Strand: GGTTGGTGTGGTTGG
For `2'F-ANA at 1 2 3 4 5 7 8 9 11 14`, “mean fluorescence intensity” read 45.6 a.u.
`2'F-ANA at 4 5 6 8 9 13 14` — result for “mean fluorescence intensity”: 48.3 a.u.
Under “mean fluorescence intensity”, `2'F-ANA at 1 3 4 5 6 8 15` is recorded as 64.7 a.u.
`2'F-ANA at 2 3 4 8 12 13 14`: “mean fluorescence intensity” 390 a.u.
`2'F-ANA at 3 6 9 12 13 14 15`: “mean fluorescence intensity” 532 a.u.
`2'F-ANA at 1 2 3 4 6 8 9 11 13 14`: “mean fluorescence intensity” 66.2 a.u.
`2'F-ANA at 1 3 5 6 8 9 11` — result for “mean fluorescence intensity”: 59.5 a.u.
For `2'F-ANA at 1 2 3 4 6 7 8 9 10 15`, “mean fluorescence intensity” read 61.3 a.u.
`2'F-ANA at 1 3 4 6 7 10 11 12 15`: “mean fluorescence intensity” 71.6 a.u.
`2'F-ANA at 2 3 4 5 8 11 13 14` — result for “mean fluorescence intensity”: 48.1 a.u.
`2'F-ANA at 2 4 5 7 8 9 10 13 14`: “mean fluorescence intensity” 46.5 a.u.
For `2'F-ANA at 3 6 7 8 9 14 15`, “mean fluorescence intensity” read 561 a.u.
`2'F-ANA at 2 3 4 5 7 8 9 11 15` — result for “mean fluorescence intensity”: 129 a.u.
For `2'F-ANA at 5 6 12 14`, “mean fluorescence intensity” read 48.5 a.u.
For `2'F-ANA at 2 3 4 11 15`, “mean fluorescence intensity” read 545 a.u.
`2'F-ANA at 4 5 7 8 10 11 14 15` — result for “mean fluorescence intensity”: 45.8 a.u.
`2'F-ANA at 1 5 7 9 10 14` — result for “mean fluorescence intensity”: 75.8 a.u.
Under “mean fluorescence intensity”, `2'F-ANA at 1 8 12 14` is recorded as 79.4 a.u.
For `2'F-ANA at 1 2 3 9 14`, “mean fluorescence intensity” read 81.5 a.u.
